Measured values gathered from unrelated publications.
Values joined by “and” are separate records of one study, mostly repeats; a detail may differ. Numbers after ± are the reported error.

CCCCC/C=C/C=C/C(=O)NCC(C)C — AUC(0-t) (rat, sham-operated, plasma; oral, 50 mg/kg): 337 ± 222 ng·h/mL
CN1CCN(c2ccc(Nc3ncc(Cl)c(Nc4ccccc4P(C)(C)=O)n3)cc2Br)CC1 — AUC(0-t) (Sprague-Dawley rat, male, plasma; oral, 25 mg/kg): 3130 ng·h/mL and 3250 ng·h/mL
CC(C)(C)C(=O)Nc1ccc2[nH]c(CN3CCC(N(CCCN4CCOCC4)CC4OC(n5cnc6c(N)ncnc65)C(O)C4O)CC3)nc2c1 (centres unmarked) — AUC(0-t) (Sprague-Dawley rat male, plasma; intravenous, 20 mg/kg): 2690 ± 620 ng·h/mL
CCCCCCCOc1ccc(CC[C@](N)(CO)COP(=O)(O)O)cc1C(F)(F)F — AUC(0-t) (rat Sprague-Dawley male, heart; oral, 1 mg/kg): 846 ng·h/g
CC1(C)CNC(=O)c2ccccc21 — AUC(0-t) (Sprague-Dawley rat, male, plasma; oral, 5 mg/kg): 2890 ± 453 ng·h/mL
C=C(c1ncc(C(=O)O)cn1)c1cc2c(cc1C)C(C)(C)CCC2(C)C — AUC(0-t) (rat Sprague-Dawley male, plasma; oral, 100 mg/kg, sesame oil): 83300 ng·h/mL
N=C(N)NCCC[C@H](NC(=O)[C@@H]1CCCN1C(=O)[C@H](Cc1ccccc1)NC(=O)[C@@H]1CCCN1C(=O)[C@H](Cc1c[nH]cn1)NC(=O)[C@@H](N)Cc1ccccc1)C(=O)O — AUC(0-t) (Sprague-Dawley rat male, plasma; oral gavage, 50 mg/kg, 150 min): 94.1 ± 30.9 ng·h/mL
Cn1cc(C(N)=O)c(NC2C3CC4CC2CC(OS(=O)(=O)O)(C4)C3)c2ccnc1-2 (centres unmarked) — AUC(0-t) (Japanese adults, moderate hepatic impairment, plasma; oral, 150 mg single dose): 1130 ng·h/mL
COc1ccnc(C[S+]([O-])c2nc3cc(-n4cccc4)ccc3[nH]2)c1C (centres unmarked) — AUC(0-t) ratio (male Sprague Dawley rats, plasma; oral, 10 mg/kg ilaprazole racemate; reference: compound over R-ilaprazole): 1.28
COC(=O)/C=C/C(=O)c1ccc(OC)cc1 — AUC(0-t) (Sprague-Dawley rat, both sexes, plasma; oral, 100 mg/kg): 1140 ± 168 ng·h/mL
C=C(c1cc(F)c(C(=O)O)c(F)c1)c1cc2c(cc1C)C(C)(C)CCC2(C)C — AUC(0-t) (rat Sprague-Dawley male, plasma; oral, 100 mg/kg, sesame oil): 20500 ng·h/mL
